Assay results pooled from the literature.
Parts stem from different laboratories: compare values within a part only.

Block 1
Target: RNA binding protein fox-1 homolog 2, RRM domain, GST-SBP tag (RBFOX2, Homo sapiens, UniProt O43251-10, residues 100-194)
Technique: RNA Bind-n-Seq
Molecule type: RNA
Sample: in vitro
Tested at: 365 nM
Notes: natural RNA segment, single round, ends assumed
Baseline: no-protein control
Direction: higher = stronger binding
All sequences stand within: GGGAGUUCUACAGUCCGACGAUC … UGGAAUUCUCGGGUGCCAA
Construct (chain): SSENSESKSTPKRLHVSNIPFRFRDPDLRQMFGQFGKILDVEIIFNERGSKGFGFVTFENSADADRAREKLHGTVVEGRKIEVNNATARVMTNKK
| Sequence | RBNS enrichment (R) |
| --- | --- |
| UAUAUGGGGCUUUAGCAAGUUUGAGCAUAGGCUCUUUUUGCUGCCUGUGAGCAGUCCCUCUGGAAAGAAACAUGUGAGUAAGUGAGAGAGAGUGUGUGUGUAUGUGUGUG | 9 |
| AGAAAUAUUCAGAUACAAGUUUUAUCUCAGGUGAAUAUCCUUGUAUCGUUUUGCUUUGCUGACAUGUUUAUAAAGAAAGACCAUCAUACUUAAUAGUCUUUGGAGGUUUG | 0.585 |
| GAGUGUGAAGAUGGUGGUUAGCAGUUUCACUAAGACUGAUAUUUUAGGCCUCUUGUUCACAUCAAAAGAUAUUGGUGUCAGAAUACCAGCAUUUUCCUGCCAUGCAAAGG | 1.09 |
| UGUUUUUUUAAAUCAAGAACUACGUUCUGCCCCUCUCUUGGGCUUCAGAAGCAUCUAAGAAAAGCAGUCAUCAAUUAUAAUUAACUUUCAAAGGGCAAGUCAGAAGUUGU | 0.357 |
| AAAAGAAAAGCAAGUUUUAUAUAUAUACAUAUAUAUAUAAAGAUCUACAAUUAAAAGAAUGUUUUGAUAAUCCAGGGGCUGGUUAGUGAGCCCGCUGGCCUCACUGGGGU | 2.53 |
| UUCCAGACACUGCUCACUCACUGGGUGCUGUGCUGUGGCUAGUGUAUGGCUUGUACCCAGAUGGCGCACUGUGCAGCCUGUGUAGCAUGCACAGUGACCCAGCUGAGUGG | 0.538 |
| AAGCUAAAUAUUAUAUAUUUUAUUUUUCAUACAUGUUUGAAGUGCAAAUCUGUGGAUAUUCCAUUUGUAGGACCAAGUCGACAUGCCCAUCCUGACAUUGUAUGCUACGA | 0.547 |
| GUGUGGCAUGGGUUGAGUGUGGCCACCUGCAGGAUGUGCAGGGCUGCCUCAGAAGCUGGCUGGGGACUCUAGCCUCUGUGUUCAUAAAGACAUUAAGAAGUGGAUGGAUG | 3.96 |
| GAACAAGCCUCUGUGAAUAUUUUCAUCUGUAUAAAUGCACAUCACAAAUUAAAAUCUGAUUCUUUUCGUUUGGUUGUUUUAUUUUAAAGGGGGUAGGUGGAUGAAGGGGC | 0.782 |
| CGCCUAGCAUGCAUACGAAGCCUGGAUCCCAUAUCCCAGCAGGGCAAACCAAUUGCCUCAGGCUAUCUGUGUAAGGUGUCUAUGUGAAACCUAAAUGAAUUUCAUGAUUA | 1.66 |
| AUUUGUUUAGGGUUGUGAGGUUGUGUAAAAUAGUACUAGCUUCUUACUUGAGAACUACAGUUUCUGCUUAUCAUUUAUUCUUCCUUGUGGCACUUAAUAUUUUAAUUGUC | 0.304 |
| AAAAAAAAAAUUCCAUCCUCGUAUCUCAUGUGUACACAUAUGAACACACACACUGCACAUGUAACUGCCCUUCUUCUUUCUGGCUCCUAAACGCCUUUGAGCUUGUUGGU | 0.737 |

Block 2
Target: Sal-like protein 4, full length isoform A (SALL4, Homo sapiens, UniProt Q9UJQ4, residues 1-1053)
Sequence of UniProt Q9UJQ4 (whole entry, looked up): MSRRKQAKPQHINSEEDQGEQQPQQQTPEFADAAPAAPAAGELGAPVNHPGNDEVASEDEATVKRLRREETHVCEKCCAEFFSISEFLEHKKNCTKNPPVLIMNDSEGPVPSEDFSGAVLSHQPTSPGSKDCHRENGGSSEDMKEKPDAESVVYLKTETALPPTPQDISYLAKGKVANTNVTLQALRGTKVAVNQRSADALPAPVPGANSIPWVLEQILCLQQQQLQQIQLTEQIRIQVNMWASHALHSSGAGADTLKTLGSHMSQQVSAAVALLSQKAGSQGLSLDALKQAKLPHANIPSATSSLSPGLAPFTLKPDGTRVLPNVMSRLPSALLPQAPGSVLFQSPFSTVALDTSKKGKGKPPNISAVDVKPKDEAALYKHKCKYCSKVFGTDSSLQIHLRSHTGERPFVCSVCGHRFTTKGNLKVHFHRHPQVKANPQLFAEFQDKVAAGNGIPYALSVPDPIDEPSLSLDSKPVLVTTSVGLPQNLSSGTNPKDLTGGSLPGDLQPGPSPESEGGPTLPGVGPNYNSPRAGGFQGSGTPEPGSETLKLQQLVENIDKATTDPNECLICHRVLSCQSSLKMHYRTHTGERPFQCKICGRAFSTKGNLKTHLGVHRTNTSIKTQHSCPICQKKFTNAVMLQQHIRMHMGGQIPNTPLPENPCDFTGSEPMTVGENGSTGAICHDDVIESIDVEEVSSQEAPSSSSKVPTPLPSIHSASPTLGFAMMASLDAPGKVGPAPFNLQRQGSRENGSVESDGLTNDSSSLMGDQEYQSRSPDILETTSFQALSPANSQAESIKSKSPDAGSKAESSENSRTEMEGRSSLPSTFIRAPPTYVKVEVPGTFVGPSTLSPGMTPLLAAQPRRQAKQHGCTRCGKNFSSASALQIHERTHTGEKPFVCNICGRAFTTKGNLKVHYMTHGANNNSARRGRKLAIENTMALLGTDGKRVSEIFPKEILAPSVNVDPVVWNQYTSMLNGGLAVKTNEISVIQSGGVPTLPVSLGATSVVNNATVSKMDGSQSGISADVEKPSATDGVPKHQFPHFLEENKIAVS
Technique: universal PBM
Molecule type: double-stranded DNA, one strand shown
Sample: in vitro
Tested at: 600 nM
Notes: 8-mer, flanks averaged, mean of replicates
Direction: higher = stronger binding
| Sequence | E-score |
| --- | --- |
| ATAATTTA | 0.41 |
| CCCGTAGC | -0.332 |
| CCACGCCA | -0.0693 |
| CAGGGACA | -0.174 |
| CGCCGCAC | -0.256 |
| CAACCCAG | -0.262 |
| ATCCTGAG | 0.0848 |
| AAGCTTTC | 0.0695 |
| CGCCGACG | -0.292 |
| ATCGACGG | -0.141 |
| ACAAGCAA | 0.139 |
| GGAAAGGA | -0.0824 |
| ACGATCAC | -0.119 |
| AAGACGGC | -0.19 |
| AGTGAATC | 0.0851 |
| ACGCTAGA | -0.0341 |
| AGTGGCCG | -0.337 |
| ATGCGTGG | -0.169 |
| ATAAAAAA | 0.343 |
| TAATAACA | 0.395 |
| GAACATGA | 0.034 |
| AGTATACT | 0.184 |
| CACGGGTC | -0.25 |
| CTAGCCGC | -0.319 |
| ACGCAGAG | -0.105 |

Block 3
Target: Histone acetyltransferase KAT6A, winged helix 1, GST fusion (KAT6A, Homo sapiens, UniProt Q92794, residues 1-85)
Technique: protein binding microarray
Molecule type: double-stranded DNA, one strand shown
Sample: in vitro
Tested at: not given
Notes: 8-mer, flanks averaged, mean of 2 arrays, mostly near background
Baseline: not given
Direction: higher = stronger binding
Construct (chain): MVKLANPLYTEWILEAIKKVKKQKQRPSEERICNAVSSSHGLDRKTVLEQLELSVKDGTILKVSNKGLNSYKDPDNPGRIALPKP
| Sequence | E-score |
| --- | --- |
| AGATAGAG | -0.221 |
| CTAACCGC | 0.228 |
| AAATCCTA | -0.0988 |
| CGACGCAA | 0.303 |
| GCCATAAC | -0.0423 |
| AAGTTTAA | -0.186 |
| ACCGATCT | 0.104 |
| CACATATG | -0.148 |
| ACCGCAAA | 0.185 |
| CATTCACA | -0.354 |
| CTACCGTA | 0.143 |
| GAGCTCGA | -0.0737 |
| ATCATTTA | -0.0606 |
| CGTCGCAC | 0.372 |
| CTGCTATC | -0.114 |
| ATTGCTAC | -0.0921 |
| AATTGGCT | -0.26 |
| ACGACAAT | -0.222 |
| CCCCCTCC | -0.168 |
| AGTAGAGC | -0.0855 |
| ACATTCAA | -0.0552 |
| CAACTTTA | -0.158 |
| ACGATGAC | 0.0322 |
| CACAAAAC | -0.103 |
| AGATCCTG | -0.176 |

Block 4
Target: Interferon regulatory factor 7, full length, phosphomimetic (IRF7, Homo sapiens, UniProt Q92985, residues 1-503, S471D/S472D/S475D/S476D/S477D/S483D/S484D/S487D)
Technique: protein-binding microarray
Molecule type: double-stranded DNA, one strand shown
Sample: in vitro
Tested at: 2200 nM top
Notes: 60-bp whole probe
Added: salmon DNA 0.4 mg/ml
Baseline: random background probes
Direction: higher = stronger binding
All sequences stand within: GCCTAGCAC … GTCTTGATTCGCTTGACGCTGCTG
Target sequence (chain): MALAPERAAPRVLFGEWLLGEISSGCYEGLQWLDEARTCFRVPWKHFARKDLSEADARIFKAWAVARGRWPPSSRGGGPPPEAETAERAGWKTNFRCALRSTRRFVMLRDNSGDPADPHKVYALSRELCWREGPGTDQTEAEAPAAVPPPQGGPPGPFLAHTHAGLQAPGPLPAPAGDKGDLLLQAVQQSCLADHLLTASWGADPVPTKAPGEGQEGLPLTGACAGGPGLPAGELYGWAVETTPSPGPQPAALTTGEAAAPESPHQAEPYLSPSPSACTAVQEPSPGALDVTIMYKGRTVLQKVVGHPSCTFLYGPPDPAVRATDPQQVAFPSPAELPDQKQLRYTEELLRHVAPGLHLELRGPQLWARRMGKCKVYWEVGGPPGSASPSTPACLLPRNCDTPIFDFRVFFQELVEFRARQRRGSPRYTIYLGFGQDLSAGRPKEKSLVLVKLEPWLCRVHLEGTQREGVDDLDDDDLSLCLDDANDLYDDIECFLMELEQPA
| Sequence | fitted relative affinity |
| --- | --- |
| GACGGTCTCTTTATCCTGACGTGCTAG | 0.974 z-score |
| TTAGGACTGCTTGTCCTTTAGTGCTAG | 0.134 z-score |
| AGAATGATCTTCCTTCATGGCGTGCTA | 0.225 z-score |
| GACAGACTGGACTATCGGGACGTGCTA | -0.445 z-score |
| GACAATATCAGTTTCGAGACGTGCTAG | 3.79 z-score |
| GACGGACTGCTACTGGTGACGTGCTAG | -0.122 z-score |
| GACGGATTCGACTTTCGGGACGTGCTA | 4.17 z-score |
| TCATTTTTTCATATATAACTGTGCTAG | 1.56 z-score |
| TTAGATTTCTGACTGGATTAGTGCTAG | 0.143 z-score |
| TTAGGACTGCTTCCCCTTTAGTGCTAG | 1.33 z-score |
| GACGGTATCGGTCTCGCGACGTGCTAG | 0.19 z-score |
| TTAGGTCTAGGTATCGGTTAGTGCTAG | 0.04 z-score |
| TTAGGTTTCGGACTGGGTTCGTGCTAG | 3.32 z-score |
| GATGTTTTTCATTTTTTTTCGTGCTAG | 2.28 z-score |
| GGCGGTCTCCTTCTCCTGACGTGCTAG | 0.139 z-score |
| CCATCTCAGCCTCCCCAAGGGTGCTAG | 0.0539 z-score |
| TTAGGTTTCGGGTATCTGTTAGTGCTA | 5.65 z-score |
| GACGGTTTCGGGACTGGGGAGGTGCTA | 3.63 z-score |
| GACGGACTGGGTGTCGGGACGTGCTAG | -0.9 z-score |
| TTTGCTTTCCTTTATGTACTGTGCTAG | 3.37 z-score |
| GACGGCTTCGACACTGGGGACGTGCTA | -0.61 z-score |
| TCACTTTCCAATTGTCCTACTGTGCTA | 7.84 z-score |
| TTAGGTCTCCTACTGCTTAAGTGCTAG | 0.41 z-score |
| GACGAACTGGGGGATCGAGACGTGCTA | 0.502 z-score |
| GACGTTTTCGGGTTTCGAGACGTGCTA | 8.83 z-score |

Block 5
Target: Protein max, full length (MAX, Homo sapiens, UniProt P61244-2, residues 1-151)
Technique: protein-binding microarray
Molecule type: double-stranded DNA, one strand shown
Sample: in vitro
Tested at: not given
Notes: k-mer, scored over probes, only values ≥0.25
Direction: higher = stronger binding
| Sequence | E-score |
| --- | --- |
| ATGTGTCA | 0.353 |
| ACCTTGTG | 0.295 |
| ATGCCATG | 0.346 |
| GCTGTCAC | 0.28 |
| ATACAGCA | 0.271 |
| GAACGTGA | 0.306 |
| AGCACGGG | 0.375 |
| CATGCATG | 0.409 |
| CATGCTGA | 0.433 |
| GCATGAAC | 0.259 |
| TGCTTCCA | 0.28 |
| AGCACACC | 0.295 |
| ACACGCCC | 0.305 |
| CACGTGCA | 0.495 |
| CCCCACGC | 0.402 |
| GCTGACAC | 0.267 |
| GCACGCGA | 0.414 |
| AACATGTT | 0.288 |
| CACGATGA | 0.326 |
| CATGAGCC | 0.27 |
| CCCACGCC | 0.38 |
| AGGTGGCG | 0.328 |
| CTCCATGC | 0.371 |

Some of these lines once more (block 3):
| Sequence | E-score |
| --- | --- |
| ATCATTTA | -0.0606 |
| CGTCGCAC | 0.372 |
| CTGCTATC | -0.114 |
| ATTGCTAC | -0.0921 |
| AATTGGCT | -0.26 |
| ACGACAAT | -0.222 |
| CCCCCTCC | -0.168 |
| AGTAGAGC | -0.0855 |
| ACATTCAA | -0.0552 |
| CAACTTTA | -0.158 |
| ACGATGAC | 0.0322 |
